# Published values gathered from unrelated publications.
# Each numbered part is a random draw from the data of one study; scales do not carry over between parts. Substitutions count along the parent as printed.

# Sample 1
# Target: CCNA2, cyclin fold, Cln2 fusion (human)
# Technique: yeast growth competition, sequencing
# Matrix: yeast
# Notes: strong parent motif
# Relative to: not given
# Direction: higher = stronger binding
# Parent: MICAL3 docking peptide (human); LQLRRQLSFSEDS; partner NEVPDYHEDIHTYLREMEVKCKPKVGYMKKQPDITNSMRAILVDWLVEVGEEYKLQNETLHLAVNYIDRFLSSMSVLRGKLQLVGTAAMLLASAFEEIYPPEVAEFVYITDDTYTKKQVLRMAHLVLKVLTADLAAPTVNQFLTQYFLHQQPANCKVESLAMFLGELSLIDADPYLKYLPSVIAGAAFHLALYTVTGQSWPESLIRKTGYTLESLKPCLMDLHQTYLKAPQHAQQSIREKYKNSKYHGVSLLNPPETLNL
Substitution,normalised enrichment score
L7D,-0.449
D12F,3.02
Q6C,3.64
E11T,3.22
S10C,2.66
L7C,-0.086
Q2N,3.68
L7H,0.301
E11I,2.01
Q2D,2.35
Q6D,0.119
R5F,0.421
Q6N,0.76
E11D,3.68
L3A,5.77
Q6L,1.05
F9I,0.226
E11R,2.36
D12A,3.83
Q2E,2.44
S10F,2.14
Q6G,0.975
S8T,3.61
S8E,2.69
Q2T,3.66

# Sample 2
# Target: Prothrombin, mature alpha-thrombin (F2, Homo sapiens, UniProt P00734)
# Technique: aptamer microarray, sandwich
# Form: DNA with 2'F-ANA
# Matrix: in vitro
# Tested at: 200 nM
# Notes: whole 15-mer aptamer, many near background
# Together with: Cy3 exosite-II aptamer, 400 nM
# Direction: higher = stronger binding
# Oligonucleotide: GGTTGGTGTGGTTGG
Modification,mean fluorescence intensity
2'F-ANA at 1 3 4 6 7 9 10 13 15,53.2 a.u.
2'F-ANA at 1 5 6 7 9 12 13,71 a.u.
2'F-ANA at 1 3 5 6 7 8 9 12 13 15,106 a.u.
2'F-ANA at 4 5 7 8,101 a.u.
2'F-ANA at 2 3 5 7 8 13,94.5 a.u.
2'F-ANA at 1 2 7 10 13 15,51.2 a.u.
2'F-ANA at 2 3 5 7 8 9 10 12 13 15,59.7 a.u.
2'F-ANA at 5 7 8 9 10 11 13 14,46.8 a.u.
2'F-ANA at 3 6 8 10 12 13,464 a.u.
2'F-ANA at 2 3 7 10 11 12 13,445 a.u.
2'F-ANA at 8 12 13 14,245 a.u.
2'F-ANA at 1 4 6 12 13 14,53.4 a.u.
2'F-ANA at 1 3 4 5 6 7 8 11,82.8 a.u.
2'F-ANA at 2 6 8 13 15,246 a.u.
2'F-ANA at 3 5 6 9,125 a.u.
2'F-ANA at 3 6 8 10 11 12 15,400 a.u.
2'F-ANA at 3 7 9 11 14 15,574 a.u.
2'F-ANA at 2 3 4 6 8 9 11,500 a.u.
2'F-ANA at 3 6 8 11 12 13 15,966 a.u.
2'F-ANA at 4 5 10 11 12 13 14,45.5 a.u.
2'F-ANA at 1 3 7 9 14 15,84.3 a.u.

# Sample 3
# Target: Sal-like protein 4, full length isoform B (SALL4, Homo sapiens, UniProt Q9UJQ4-2, residues 1-616)
# Technique: universal PBM
# Form: double-stranded DNA, one strand shown
# Matrix: in vitro
# Tested at: not given
# Notes: 8-mer, flanks averaged, mean of replicates
# Direction: higher = stronger binding
Oligonucleotide,E-score
ATCCACAT,0.202
CTAGAGGC,-0.11
GCCCAATA,0.116
CCTTTCAC,-0.0508
ACCAGCGA,-0.271
CAAGCGTG,0.0535
GGGTTTGA,-0.0474
ATCTAACA,0.134
AAGGCAAG,-0.0396
GGGCTACA,-0.0898
CCGGTCCC,-0.309
TAACCTGA,0.0199
ACTAATCT,0.0584
CCATCATC,0.117
CGGTCGCA,-0.253
ATGCCGGA,-0.153
AAAAAGCG,0.174
GCCCAACC,0.0254
GTACATGA,0.205
ACGGATAC,0.0944
ACCCACAC,-0.0781

# Sample 4
# Target: Myc proto-oncogene protein, bHLH-zipper, MAX partner unstated (MYC, Homo sapiens, UniProt P01106, residues 368-449)
# Sequence of UniProt P01106 (368-449, looked up): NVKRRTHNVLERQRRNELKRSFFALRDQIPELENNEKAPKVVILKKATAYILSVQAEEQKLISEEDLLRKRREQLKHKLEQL
# Technique: protein-binding microarray
# Form: double-stranded DNA, one strand shown
# Matrix: in vitro
# Tested at: not given
# Notes: k-mer, scored over probes, only values ≥0.25
# Direction: higher = stronger binding
Oligonucleotide,E-score
ACCACATG,0.476
GCACGCTA,0.35
CGCGTGTC,0.448
AGCACACC,0.336
CTCATGTC,0.323
ACACGAGA,0.336
CATGGCCG,0.389
GCGCGGTA,0.294
ACGTGTAG,0.4
ACCTTGTG,0.303
TGTGCACA,0.276
ATCACCAC,0.259
CGACACGC,0.375
AATGTGGT,0.264
GTGAACAC,0.282
CACATGGG,0.456
GCCTCCCC,0.364
GAGCCCAC,0.257
ACCATGAG,0.405
CTCGTGGC,0.457
ACCGCCAT,0.301
CCACGCGC,0.451
CGTGCTAA,0.318
ACGCGTTC,0.305
CTCGCCAC,0.273

# Sample 5
# Target: Histone acetyltransferase KAT6A, both winged helices, GST fusion (KAT6A, Homo sapiens, UniProt Q92794, residues 1-181)
# Technique: protein binding microarray
# Form: double-stranded DNA, one strand shown
# Matrix: in vitro
# Tested at: not given
# Notes: 8-mer, flanks averaged, mean of 2 arrays, mostly near background
# Relative to: not given
# Direction: higher = stronger binding
# Residues (chain): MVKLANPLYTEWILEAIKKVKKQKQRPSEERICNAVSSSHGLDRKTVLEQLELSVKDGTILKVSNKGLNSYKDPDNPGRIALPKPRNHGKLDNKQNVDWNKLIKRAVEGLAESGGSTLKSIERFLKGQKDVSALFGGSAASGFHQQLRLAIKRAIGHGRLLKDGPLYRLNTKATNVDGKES
Oligonucleotide,E-score
GCCTCACC,-0.00256
CACTTCAA,-0.055
AGTCAGCG,0.0335
CAATGCAC,0.0547
GACTTGCC,-0.0173
AGACTACT,-0.0687
GGGTCTAA,0.02
ATACTAGC,-0.0625
ATCCGGCG,0.28
GGAAGGCC,-0.0495
CAGGCTAG,-0.186
ATACAGGC,-0.144
CATGCGGA,0.143
TACGCTCA,0.119
GACGCCAC,0.131
TCAGGGAA,-0.0733
AGTTCTCC,-0.0331
ACGGAGCG,0.305
CGAGATTA,0.0904
GTCCTCGA,-0.0632
CAAATGAG,-0.255

# Sample 6
# Target: RNA binding protein fox-1 homolog 2, RRM domain, GST-SBP tag (RBFOX2, Homo sapiens, UniProt O43251-10, residues 100-194)
# Technique: RNA Bind-n-Seq
# Form: RNA
# Matrix: in vitro
# Tested at: 365 nM
# Notes: natural RNA segment, single round, ends assumed
# Relative to: no-protein control
# Direction: higher = stronger binding
# Shared flanks, not repeated: GGGAGUUCUACAGUCCGACGAUC … UGGAAUUCUCGGGUGCCAA
# Residues (chain): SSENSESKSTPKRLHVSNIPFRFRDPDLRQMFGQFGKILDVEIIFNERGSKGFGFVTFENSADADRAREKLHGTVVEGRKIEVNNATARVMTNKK
Oligonucleotide,RBNS enrichment (R)
GCCUUAGAUUUUACACACACUCCACAGCCAAGCACUGCCACGGUCCUCCAGGACCUGGGAAGCAAAGGCACAGGCCCACGGUGGCCAGCCAUUGUGGUGCCGCCCCAGCU,0.195
GCUGUGGGAGAGACAAUUCAGUGGCAGCCCACUGGCUUCUCUACCCAUUCCACAGGAACCCUAUUCCUACCCCCACCCCUGCCCACAAAUGCCACUGUGAUCCACAGCUG,0.412
UCUCUCCUGGCAUGAAAAUAAAGGAUUUUGUUGUUCCACUGCCCACUUCCCCCAUGUUGUCUUUCCCUUGGCCGCUGCCUCCUCUGGGUCACACUGCUUCUUAUCCUGAA,8.02
CAUCCAUCAAGGAUUUCCAUAGGGGUGACUGGUGCCCACCCAAGACUGCACCAGUGCCUGCUCAUUGAGGAGAGUAACUGCUGGCCAGGCAGAAAGAAUAUGGGCUCUGC,0.469
CUGUAACUGAGGUUAGGAAAAGAUGUGCCCUUCCUUCCUCCCAGCCUUUCUCCCCUCUGCUUCCUCAUUACUUUUGUCCUCCCUGGGAGCGUUCGCGCUCUGGGUCACUG,0.574
GCAACGACACCAACUGAUAAAAGCACAAGAGAAGUGGGGAACAUCUUGAGUCCUGUUGGACGUGAUAGUGUUUCUUGAUCUGUAUGCCACAGUGCCUUUAUGGCCAGUUU,0.837
UGGGAAUAUAAUCUGUUUAGACGAUAAUAGAGGGAAAUGCCAUAAUUAACAAAUCUCCCUUCACUCACCACUAUCCUCAUUCUUGCAGUUGUCAAGGUGUAAGCCUCACU,0.238
CGCCUCUCUGUAGCUAAGCACAGUUAGGCUGGGUGAUUUGGAUCCCGACUCGCAUCUGGUAUUGUAGACCUUUUACCUCUCAUCCGUUGUGCUUACUAACAAAAUGUGAA,1.97
ACAGAGUUCAUGAAGCCCCAAACAAUUUUUAUUUUUGUAAAACAAUUGUAUGUUUAAUCUGUUUCUGAAAUCAUUUUGCAAUAUAUGGAAAUAGAGUAGCAGUUGAUAUU,0.691
UACCGAACAGCUGAUUCAUAUGCCAAGAAUUUGGAGUCUUCUUUCAAACCAGUGGGGGUUGGACAAUGAAUGUAGUUAACUGGUUCCUGCUCACACUCCAGAAUUAAAUU,0.65
CACCUCCUCUUGUGGGAAGGAGGUCUCAGCCCCACCUCGCAUCUUCACCUGCCCUUGGUGUGGACACACCCUCUCAUGCUACCAGCACCAUAAUCCAGUGGGGGUGACUG,0.582
CCUCCCUCUGCCCAGCAGCCCCAUCUCUCCAUCACCCUGAGCCCCUCAGGUCCCAACUGAAUGUCUGCCAACCCCUGCUCAGGACACUCUUCUUUCCUGGGGCAAGCCAG,0.705

# Some of these lines once more (sample 2):
Modification,mean fluorescence intensity
2'F-ANA at 3 5 6 9,125 a.u.
2'F-ANA at 1 3 4 6 7 9 10 13 15,53.2 a.u.
2'F-ANA at 4 5 10 11 12 13 14,45.5 a.u.
2'F-ANA at 2 3 4 6 8 9 11,500 a.u.
2'F-ANA at 4 5 7 8,101 a.u.
2'F-ANA at 2 3 5 7 8 9 10 12 13 15,59.7 a.u.
2'F-ANA at 8 12 13 14,245 a.u.
2'F-ANA at 5 7 8 9 10 11 13 14,46.8 a.u.
2'F-ANA at 1 3 7 9 14 15,84.3 a.u.
2'F-ANA at 3 6 8 10 12 13,464 a.u.
2'F-ANA at 3 6 8 10 11 12 15,400 a.u.
2'F-ANA at 3 6 8 11 12 13 15,966 a.u.
2'F-ANA at 2 6 8 13 15,246 a.u.
2'F-ANA at 1 3 4 5 6 7 8 11,82.8 a.u.
2'F-ANA at 1 4 6 12 13 14,53.4 a.u.
2'F-ANA at 2 3 5 7 8 13,94.5 a.u.
2'F-ANA at 3 7 9 11 14 15,574 a.u.
2'F-ANA at 1 2 7 10 13 15,51.2 a.u.
2'F-ANA at 1 3 5 6 7 8 9 12 13 15,106 a.u.
